{"data": "Measured values gathered from unrelated publications", "note": "Each numbered part is a random draw from the data of one study; scales do not carry over between parts. Several values in a cell are separate wells, animals, samples, runs or records.", "sequence of UniProt P54760 (whole entry, looked up)": "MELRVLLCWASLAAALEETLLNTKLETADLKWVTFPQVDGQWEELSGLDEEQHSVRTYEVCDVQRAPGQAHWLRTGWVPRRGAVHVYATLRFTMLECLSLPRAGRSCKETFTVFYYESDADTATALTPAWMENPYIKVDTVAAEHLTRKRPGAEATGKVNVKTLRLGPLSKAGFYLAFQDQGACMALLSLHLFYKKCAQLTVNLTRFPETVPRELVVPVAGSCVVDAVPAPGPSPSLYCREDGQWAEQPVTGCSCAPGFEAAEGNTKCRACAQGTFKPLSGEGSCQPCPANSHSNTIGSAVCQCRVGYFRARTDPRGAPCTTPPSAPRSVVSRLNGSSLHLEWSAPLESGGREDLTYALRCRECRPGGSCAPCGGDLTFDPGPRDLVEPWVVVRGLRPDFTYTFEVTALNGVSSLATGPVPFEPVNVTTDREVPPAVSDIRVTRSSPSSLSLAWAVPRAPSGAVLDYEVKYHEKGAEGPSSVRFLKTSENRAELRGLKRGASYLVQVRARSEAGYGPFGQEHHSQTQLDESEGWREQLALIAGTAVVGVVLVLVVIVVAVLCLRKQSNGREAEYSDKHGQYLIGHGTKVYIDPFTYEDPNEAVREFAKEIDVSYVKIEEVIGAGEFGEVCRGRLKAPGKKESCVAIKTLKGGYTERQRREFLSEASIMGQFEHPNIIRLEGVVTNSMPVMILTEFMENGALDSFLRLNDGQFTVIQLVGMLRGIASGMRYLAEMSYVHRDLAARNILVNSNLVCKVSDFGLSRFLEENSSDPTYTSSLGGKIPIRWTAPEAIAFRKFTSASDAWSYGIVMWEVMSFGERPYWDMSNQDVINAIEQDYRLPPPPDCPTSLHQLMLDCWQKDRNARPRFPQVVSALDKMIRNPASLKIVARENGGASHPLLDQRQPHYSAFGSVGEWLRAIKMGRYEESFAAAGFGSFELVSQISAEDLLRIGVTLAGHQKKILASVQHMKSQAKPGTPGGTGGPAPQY", "sequence of UniProt P80192 (whole entry, looked up)": "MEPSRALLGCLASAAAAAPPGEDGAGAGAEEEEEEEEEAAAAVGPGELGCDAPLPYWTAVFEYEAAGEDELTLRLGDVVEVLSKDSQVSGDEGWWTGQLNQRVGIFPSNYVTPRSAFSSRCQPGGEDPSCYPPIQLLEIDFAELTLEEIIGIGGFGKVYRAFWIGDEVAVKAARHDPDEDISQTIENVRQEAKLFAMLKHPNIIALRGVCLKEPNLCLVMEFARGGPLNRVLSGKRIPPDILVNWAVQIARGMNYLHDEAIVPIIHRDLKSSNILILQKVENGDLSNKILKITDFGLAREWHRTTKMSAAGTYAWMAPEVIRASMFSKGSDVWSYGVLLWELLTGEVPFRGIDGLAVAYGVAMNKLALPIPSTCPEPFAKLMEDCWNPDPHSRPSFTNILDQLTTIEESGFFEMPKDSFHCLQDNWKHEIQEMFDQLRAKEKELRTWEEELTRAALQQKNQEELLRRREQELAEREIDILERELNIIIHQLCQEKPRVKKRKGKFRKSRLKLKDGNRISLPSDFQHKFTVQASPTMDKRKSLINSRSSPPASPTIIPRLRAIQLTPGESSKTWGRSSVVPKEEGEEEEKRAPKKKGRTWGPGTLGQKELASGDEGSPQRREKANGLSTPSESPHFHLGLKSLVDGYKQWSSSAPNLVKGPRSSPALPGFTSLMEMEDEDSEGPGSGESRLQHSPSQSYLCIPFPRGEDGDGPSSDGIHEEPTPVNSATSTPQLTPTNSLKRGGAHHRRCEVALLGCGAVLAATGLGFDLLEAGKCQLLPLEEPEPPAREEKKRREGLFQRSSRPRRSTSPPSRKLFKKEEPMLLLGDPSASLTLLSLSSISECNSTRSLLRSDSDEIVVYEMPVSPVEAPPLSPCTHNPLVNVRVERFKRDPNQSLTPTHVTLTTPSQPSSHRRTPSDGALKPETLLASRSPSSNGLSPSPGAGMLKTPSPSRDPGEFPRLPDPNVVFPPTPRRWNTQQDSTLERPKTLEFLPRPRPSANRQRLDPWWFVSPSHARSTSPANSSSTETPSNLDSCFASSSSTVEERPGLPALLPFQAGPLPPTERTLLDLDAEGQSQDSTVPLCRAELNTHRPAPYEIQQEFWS", "sequence of UniProt O00506 (whole entry, looked up)": "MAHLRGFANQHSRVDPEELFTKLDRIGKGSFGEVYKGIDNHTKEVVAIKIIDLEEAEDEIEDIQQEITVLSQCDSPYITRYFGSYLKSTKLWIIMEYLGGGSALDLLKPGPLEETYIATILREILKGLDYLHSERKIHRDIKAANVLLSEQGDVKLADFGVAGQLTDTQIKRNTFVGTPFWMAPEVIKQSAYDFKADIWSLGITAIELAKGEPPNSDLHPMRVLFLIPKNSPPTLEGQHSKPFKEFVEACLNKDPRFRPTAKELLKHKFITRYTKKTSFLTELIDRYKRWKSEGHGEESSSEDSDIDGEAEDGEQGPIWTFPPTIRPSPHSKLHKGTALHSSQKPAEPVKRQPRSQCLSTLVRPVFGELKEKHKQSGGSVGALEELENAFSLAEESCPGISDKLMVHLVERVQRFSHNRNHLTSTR"}
{"data": "Sample 1", "host": "human", "sample": "microsomes or S9", "concentration": "2 µM", "time": "0.5 h"}
{"SMILES": "c1ccc2c(c1)cnn2CCCNc1ncnc2c1CCNCC2", "remaining compound": "94%"}
{"SMILES": "COc1ccc(C2N=C(O)c3ccccc3O2)c(OC)c1OC (centres unmarked)", "remaining compound": "4.3%"}
{"SMILES": "CCc1nc2cc(-c3ccc(OC)nc3)cnc2[nH]1", "remaining compound": "71.4%"}
{"SMILES": "OCCNc1nc(Cl)nc(Nc2ccc3c(c2)OCO3)n1", "remaining compound": "21.5%"}
{"SMILES": "O=C(Nc1nc2ncc(Br)nc2s1)c1ccc(Cl)cc1", "remaining compound": "20.5%"}
{"SMILES": "CC(O)c1ccc(N2CCN(CCCNC(=O)c3cc4ccccc4s3)CC2)cc1 (centres unmarked)", "remaining compound": "> 99%"}
{"SMILES": "COc1ccccc1CNC(=O)c1cc2c(s1)CS(=O)(=O)C2", "remaining compound": "80.9%"}
{"data": "Sample 2", "cell line": "mouse MPNST tumor cells", "technique": "high-content nuclear imaging", "refers to": "cell number", "concentration": "10 µM", "time": "12 h", "notes": "mean of 2 replicates", "reference": "plate mean", "direction": "higher = more cells"}
{"SMILES": "Cc1c(C(N)=O)nn(-c2ccc(Cl)cc2Cl)c1-c1ccc(Cl)cc1", "nuclei count [z-score]": 2.37}
{"SMILES": "CCN(CC)C(=S)SSC(=S)N(CC)CC", "nuclei count [z-score]": -5.3}
{"SMILES": "N[C@H](C(=O)O)[C@H](OCc1cccc(NC(=O)c2ccc(C(F)(F)F)cc2)c1)C(=O)O", "nuclei count [z-score]": 1.41}
{"SMILES": "Cc1ncc(-c2ccnc(Nc3ccc(S(C)(=O)=O)cc3)n2)n1C(C)C", "nuclei count [z-score]": -4.6}
{"data": "Sample 3", "target": "DNA polymerase theta, ATPase domain (POLQ, Homo sapiens, UniProt O75417)", "observed": "enzyme activity", "action": "inhibitor", "concentration": "77 µM", "reference": "untreated", "sequence of UniProt O75417 (whole entry, unmodified, looked up)": "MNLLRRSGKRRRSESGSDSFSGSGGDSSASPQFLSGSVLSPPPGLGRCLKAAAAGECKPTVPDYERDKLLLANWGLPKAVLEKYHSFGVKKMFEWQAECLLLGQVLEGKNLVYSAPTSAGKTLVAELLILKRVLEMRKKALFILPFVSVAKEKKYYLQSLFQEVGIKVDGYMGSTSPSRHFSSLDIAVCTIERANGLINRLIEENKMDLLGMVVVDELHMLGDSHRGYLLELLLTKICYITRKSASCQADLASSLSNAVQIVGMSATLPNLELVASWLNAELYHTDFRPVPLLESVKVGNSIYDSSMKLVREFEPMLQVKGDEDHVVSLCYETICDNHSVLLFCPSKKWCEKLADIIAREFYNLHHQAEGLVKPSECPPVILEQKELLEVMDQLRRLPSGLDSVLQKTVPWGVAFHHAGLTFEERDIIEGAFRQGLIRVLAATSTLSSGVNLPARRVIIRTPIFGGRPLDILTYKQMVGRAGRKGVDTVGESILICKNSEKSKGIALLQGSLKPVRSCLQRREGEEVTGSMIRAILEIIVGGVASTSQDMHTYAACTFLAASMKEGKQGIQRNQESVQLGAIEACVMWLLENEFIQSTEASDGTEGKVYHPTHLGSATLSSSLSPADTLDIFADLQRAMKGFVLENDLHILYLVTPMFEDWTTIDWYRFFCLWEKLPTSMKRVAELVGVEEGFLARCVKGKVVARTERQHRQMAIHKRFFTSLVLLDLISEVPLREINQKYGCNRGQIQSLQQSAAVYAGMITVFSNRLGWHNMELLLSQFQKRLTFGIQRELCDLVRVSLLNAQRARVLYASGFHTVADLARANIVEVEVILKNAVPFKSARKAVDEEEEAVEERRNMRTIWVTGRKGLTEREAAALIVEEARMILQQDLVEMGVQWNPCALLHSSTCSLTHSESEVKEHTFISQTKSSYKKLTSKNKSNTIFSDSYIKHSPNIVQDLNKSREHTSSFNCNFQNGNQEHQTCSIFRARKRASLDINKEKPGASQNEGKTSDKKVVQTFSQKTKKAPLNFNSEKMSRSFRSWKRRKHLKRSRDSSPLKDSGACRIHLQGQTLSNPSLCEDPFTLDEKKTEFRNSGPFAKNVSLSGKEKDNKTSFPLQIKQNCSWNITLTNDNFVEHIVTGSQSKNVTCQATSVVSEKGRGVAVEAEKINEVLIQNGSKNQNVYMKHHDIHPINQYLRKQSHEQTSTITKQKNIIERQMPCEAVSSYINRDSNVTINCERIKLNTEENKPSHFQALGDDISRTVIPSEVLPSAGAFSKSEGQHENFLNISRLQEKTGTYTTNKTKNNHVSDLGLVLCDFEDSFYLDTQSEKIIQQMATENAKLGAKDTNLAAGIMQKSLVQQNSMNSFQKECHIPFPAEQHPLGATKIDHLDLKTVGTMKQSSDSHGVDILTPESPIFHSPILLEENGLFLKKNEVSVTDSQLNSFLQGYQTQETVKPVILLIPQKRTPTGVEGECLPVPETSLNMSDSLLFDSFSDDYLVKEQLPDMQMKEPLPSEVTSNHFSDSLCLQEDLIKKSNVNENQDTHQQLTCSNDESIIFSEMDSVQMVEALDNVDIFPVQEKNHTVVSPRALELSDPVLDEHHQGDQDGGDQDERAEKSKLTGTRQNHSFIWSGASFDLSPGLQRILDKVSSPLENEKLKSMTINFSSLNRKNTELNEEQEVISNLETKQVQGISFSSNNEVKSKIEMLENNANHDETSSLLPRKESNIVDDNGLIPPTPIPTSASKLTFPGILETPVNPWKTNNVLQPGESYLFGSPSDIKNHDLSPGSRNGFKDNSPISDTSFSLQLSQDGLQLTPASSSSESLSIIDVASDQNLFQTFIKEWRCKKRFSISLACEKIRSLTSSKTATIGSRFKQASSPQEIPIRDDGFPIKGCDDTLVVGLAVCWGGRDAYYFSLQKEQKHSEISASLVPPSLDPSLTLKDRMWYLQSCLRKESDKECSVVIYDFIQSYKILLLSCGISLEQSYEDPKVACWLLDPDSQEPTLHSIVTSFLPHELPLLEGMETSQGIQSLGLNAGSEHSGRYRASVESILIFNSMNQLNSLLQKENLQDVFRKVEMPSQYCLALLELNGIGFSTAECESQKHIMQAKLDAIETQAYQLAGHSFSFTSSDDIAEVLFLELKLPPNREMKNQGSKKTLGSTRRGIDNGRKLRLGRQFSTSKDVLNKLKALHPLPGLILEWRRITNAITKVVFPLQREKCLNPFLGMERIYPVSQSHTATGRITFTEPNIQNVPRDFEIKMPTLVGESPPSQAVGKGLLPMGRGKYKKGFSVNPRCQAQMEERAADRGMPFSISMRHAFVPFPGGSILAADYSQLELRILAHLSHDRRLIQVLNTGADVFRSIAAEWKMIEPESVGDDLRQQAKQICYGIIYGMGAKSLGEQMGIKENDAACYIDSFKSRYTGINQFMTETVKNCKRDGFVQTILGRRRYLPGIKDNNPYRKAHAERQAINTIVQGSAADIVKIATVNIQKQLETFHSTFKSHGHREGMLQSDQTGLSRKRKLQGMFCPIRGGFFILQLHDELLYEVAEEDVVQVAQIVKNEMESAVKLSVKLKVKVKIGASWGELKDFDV"}
{"Compound": "CCNC(=O)c1noc(-c2cc(C(C)C)c(O)cc2O)c1-c1ccc(CN2CCOCC2)cc1", "remaining activity": "100%"}
{"Compound": "C[N+]1(C)CCC[C@H]1C(=O)[O-]", "remaining activity": "100%"}
{"Compound": "Oc1ccc(OCc2ccccc2)cc1", "remaining activity": "98.8% and 96.6%"}
{"data": "Sample 4", "cell line": "HaCaT", "concentration": "100 µM", "time": "36 h"}
{"SMILES": "CC[C@H]1OC(=O)C[C@@H](O)[C@H](C)[C@@H](O[C@@H]2O[C@H](C)[C@@H](O[C@H]3C[C@@](C)(O)[C@@H](O)[C@H](C)O3)[C@H](N(C)C)[C@H]2O)[C@@H](CC=O)C[C@@H](C)C(=O)/C=C/C(C)=C/[C@@H]1CO[C@@H]1O[C@H](C)[C@@H](O)[C@@H](OC)[C@H]1OC", "viability": "85.2%"}
{"SMILES": "C#C[C@]1(O)CC[C@H]2[C@@H]3CCc4cc(OC5CCCC5)ccc4[C@H]3CC[C@@]21C", "viability": "4.88%"}
{"SMILES": "C[C@]12CC[C@@H]3c4ccc(OS(=O)(=O)O)cc4CC[C@H]3[C@@H]1CCC2=O", "viability": "96.3%"}
{"SMILES": "CO/N=C(\\C(=O)N[C@@H]1C(=O)N2C(C(=O)OCOC(=O)C(C)(C)C)=C(/C=C\\c3scnc3C)CS[C@H]12)c1csc(N)n1", "viability": "96.8%"}
{"SMILES": "Nc1nc2ncc(CNc3ccc(C(=O)N[C@@H](CCC(=O)O)C(=O)O)cc3)nc2c(=O)[nH]1", "viability": "94.3%"}
{"SMILES": "COc1ccc(/C=C/C(=O)Nc2ccccc2C(=O)O)cc1OC", "viability": "34.9%"}
{"data": "Sample 5", "SMILES": "CCOCCn1cc(C(=O)Nc2ccc(-n3nc(-c4cccnc4)cc3C(F)(F)F)cn2)ccc1=O", "observed": "cell-free assay", "technique": "competition with immobilised ligand", "concentration": "1 µM"}
{"target": "AXL (Homo sapiens, UniProt P30530)", "remaining binding [%]": 91}
{"target": "PHKG1 (Homo sapiens, UniProt Q16816)", "remaining binding [%]": 100}
{"target": "TBK1 (Homo sapiens, UniProt Q9UHD2)", "remaining binding [%]": 76}
{"target": "EPHB4 (Homo sapiens, UniProt P54760)", "remaining binding [%]": 100}
{"target": "MARK2 (Homo sapiens, UniProt Q7KZI7)", "remaining binding [%]": 100}
{"target": "AKT3 (Homo sapiens, UniProt Q9Y243)", "remaining binding [%]": 100}
{"target": "PIM3 (Homo sapiens, UniProt Q86V86)", "remaining binding [%]": 90}
{"target": "PRKCH (Homo sapiens, UniProt P24723)", "remaining binding [%]": 100}
{"target": "OXSR1 (Homo sapiens, UniProt O95747)", "remaining binding [%]": 92}
{"target": "STK25 (Homo sapiens, UniProt O00506)", "remaining binding [%]": 95}
{"target": "GRK3 (Homo sapiens, UniProt P35626)", "remaining binding [%]": 76}
{"target": "IRAK4 (Homo sapiens, UniProt Q9NWZ3)", "remaining binding [%]": 96}
{"target": "MAP2K3 (Homo sapiens, UniProt P46734)", "remaining binding [%]": 83}
{"target": "TGFBR2 (Homo sapiens, UniProt P37173)", "remaining binding [%]": 100}
{"target": "MAP3K9 (Homo sapiens, UniProt P80192)", "remaining binding [%]": 93}
{"target": "STK33 (Homo sapiens, UniProt Q9BYT3)", "remaining binding [%]": 94}
{"target": "EPHA6 (Homo sapiens, UniProt Q9UF33)", "remaining binding [%]": 93}
{"target": "ERBB2 (Homo sapiens, UniProt P04626)", "remaining binding [%]": 100}
{"note": "Excerpt of the above (sample 5):"}
{"target": "MAP2K3 (Homo sapiens, UniProt P46734)", "remaining binding [%]": 83}
{"target": "AXL (Homo sapiens, UniProt P30530)", "remaining binding [%]": 91}
{"target": "MAP3K9 (Homo sapiens, UniProt P80192)", "remaining binding [%]": 93}
{"target": "EPHA6 (Homo sapiens, UniProt Q9UF33)", "remaining binding [%]": 93}
{"target": "ERBB2 (Homo sapiens, UniProt P04626)", "remaining binding [%]": 100}
